Results pooled from the literature.
Every numbered part comes from another study and shows a few of its results, in no order. Several values in a cell are separate wells, animals, samples, runs or records.

Series 1 — technique: RNAcompete; form: RNA; sample: in vitro; tested at: 20 nM; notes: 7-mer, probes averaged, single round; relative to: mean of 7-mers; direction: higher = stronger binding; quantity: 7-mer Z-score
Target: PABPC1L2, full length, GST fusion (mouse, UniProt A0ABA7IW68)
Construct (chain): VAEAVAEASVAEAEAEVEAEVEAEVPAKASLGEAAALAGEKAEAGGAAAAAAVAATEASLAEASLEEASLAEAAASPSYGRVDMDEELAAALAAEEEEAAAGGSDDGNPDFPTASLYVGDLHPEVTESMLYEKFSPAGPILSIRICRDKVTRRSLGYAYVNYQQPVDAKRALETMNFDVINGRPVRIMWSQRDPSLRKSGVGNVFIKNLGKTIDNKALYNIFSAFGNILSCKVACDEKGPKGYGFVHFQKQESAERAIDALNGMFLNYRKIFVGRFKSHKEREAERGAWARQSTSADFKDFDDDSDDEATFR
GUUGGCU: -0.175
GUACACU: -0.119
CCCAGAU: -0.132
AGUCCCA: -0.142

Series 2 — technique: protein binding microarray; form: double-stranded DNA, one strand shown; sample: in vitro; tested at: not given; relative to: not given; direction: higher = stronger binding; quantity: E-score
Target: Histone acetyltransferase KAT6A, both winged helices, GST fusion (KAT6A, Homo sapiens, UniProt Q92794, residues 1-181)
Notes: 8-mer, flanks averaged, mean of 2 arrays, mostly near background
Residues (chain): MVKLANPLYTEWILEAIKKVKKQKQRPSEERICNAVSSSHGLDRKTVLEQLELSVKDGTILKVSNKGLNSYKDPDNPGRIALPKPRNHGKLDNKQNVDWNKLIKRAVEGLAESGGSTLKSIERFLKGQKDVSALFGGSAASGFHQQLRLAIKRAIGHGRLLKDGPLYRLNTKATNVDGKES
ACGCAAAC: 0.109
ATTGAAAT: -0.0425
GCTGAAAC: 0.0721
GTGGATGA: -0.229

Series 3 — technique: RNA Bind-n-Seq; form: RNA; sample: in vitro; tested at: 1 µM; notes: whole 134-nt RNA, ends assumed; together with: 150 mM KCl; relative to: input library; direction: higher = stronger binding; quantity: log2 enrichment
Target: Ras GTPase-activating protein-binding protein 1, RRM domain (G3BP1, Homo sapiens, UniProt Q13283)
UniProt Q13283, sequence (whole entry, looked up): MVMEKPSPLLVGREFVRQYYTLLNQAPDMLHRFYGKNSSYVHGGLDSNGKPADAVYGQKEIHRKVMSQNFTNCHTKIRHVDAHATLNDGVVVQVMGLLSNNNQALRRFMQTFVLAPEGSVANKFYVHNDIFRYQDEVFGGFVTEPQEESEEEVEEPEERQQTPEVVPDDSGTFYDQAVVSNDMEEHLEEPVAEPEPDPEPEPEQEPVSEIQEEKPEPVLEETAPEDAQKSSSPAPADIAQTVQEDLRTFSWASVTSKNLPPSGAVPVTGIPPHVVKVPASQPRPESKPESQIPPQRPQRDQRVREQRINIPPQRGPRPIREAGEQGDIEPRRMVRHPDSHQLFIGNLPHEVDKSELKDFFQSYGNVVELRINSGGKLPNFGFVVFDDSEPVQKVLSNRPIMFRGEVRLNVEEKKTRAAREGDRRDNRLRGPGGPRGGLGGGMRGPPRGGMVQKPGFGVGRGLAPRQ
GGGAGUUCUACAGUCCGACGAUCCCUGUGCUACACAUCGUAUGUACCGAAUCGGCCCCCCCGGCCCCCCCGGCCCCCCCGGGGAAAGUAUUAUGUUACGCCGUUCGGAUCUGCUGGAAUUCUCGGGUGUCAAGG: -0.816
GGGAGUUCUACAGUCCGACGAUCUAACUUUAGAGGAGGAUCUGAUGGAUAUGGCAGUGGACGUGGAUUUGGGGAUGGCUAUAAUGGGUAUGGAGGACGACCUGGAGGUGGCAAUGGAAUUCUCGGGUGUCAAGG: -0.427
GGGAGUUCUACAGUCCGACGAUCAAGUCCUGUGCUACACAUCGUAUGUACCGAAUCAAACCCAAACCCAAAUUUUUAAAAAAGUAUUAUGUUACGCCGUUCGGAUCUGCACUUUGGAAUUCUCGGGUGUCAAGG: -0.151

Other studies, line by line
PhoQ, residues 284 288 289 292 302 303 TLSLKA — fold induction (PhoP, residues 12 14 15 18 19 LWHCS (Escherichia coli, UniProt P23836); Sort-seq, item: YFP reporter; E. coli; PhoQ-PhoP variant library, together with: 10 µM Mg2+; relative to: high Mg2+ state, higher = stronger signaling): 1.17 and 0.939

Some of these lines once more (series 3):
GGGAGUUCUACAGUCCGACGAUCCCUGUGCUACACAUCGUAUGUACCGAAUCGGCCCCCCCGGCCCCCCCGGCCCCCCCGGGGAAAGUAUUAUGUUACGCCGUUCGGAUCUGCUGGAAUUCUCGGGUGUCAAGG: -0.816
